Published values collected from several papers.
Every numbered part comes from another study and shows a few of its results, in no order.
Chain of UniProt P0C1S8 (whole entry, looked up): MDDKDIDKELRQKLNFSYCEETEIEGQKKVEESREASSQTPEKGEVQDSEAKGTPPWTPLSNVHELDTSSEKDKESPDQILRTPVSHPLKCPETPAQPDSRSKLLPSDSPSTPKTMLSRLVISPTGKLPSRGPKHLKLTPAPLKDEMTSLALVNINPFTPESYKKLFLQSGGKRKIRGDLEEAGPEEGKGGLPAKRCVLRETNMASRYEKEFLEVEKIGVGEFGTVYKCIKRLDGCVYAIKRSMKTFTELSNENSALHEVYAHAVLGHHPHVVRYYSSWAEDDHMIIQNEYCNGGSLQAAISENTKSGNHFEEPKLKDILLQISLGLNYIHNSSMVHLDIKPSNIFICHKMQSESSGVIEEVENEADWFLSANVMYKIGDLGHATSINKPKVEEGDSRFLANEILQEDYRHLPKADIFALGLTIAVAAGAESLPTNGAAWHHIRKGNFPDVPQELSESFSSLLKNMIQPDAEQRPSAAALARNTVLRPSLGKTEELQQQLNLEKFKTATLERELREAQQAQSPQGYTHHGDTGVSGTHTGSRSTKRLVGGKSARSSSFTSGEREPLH
Chain of UniProt P57078 (whole entry, looked up): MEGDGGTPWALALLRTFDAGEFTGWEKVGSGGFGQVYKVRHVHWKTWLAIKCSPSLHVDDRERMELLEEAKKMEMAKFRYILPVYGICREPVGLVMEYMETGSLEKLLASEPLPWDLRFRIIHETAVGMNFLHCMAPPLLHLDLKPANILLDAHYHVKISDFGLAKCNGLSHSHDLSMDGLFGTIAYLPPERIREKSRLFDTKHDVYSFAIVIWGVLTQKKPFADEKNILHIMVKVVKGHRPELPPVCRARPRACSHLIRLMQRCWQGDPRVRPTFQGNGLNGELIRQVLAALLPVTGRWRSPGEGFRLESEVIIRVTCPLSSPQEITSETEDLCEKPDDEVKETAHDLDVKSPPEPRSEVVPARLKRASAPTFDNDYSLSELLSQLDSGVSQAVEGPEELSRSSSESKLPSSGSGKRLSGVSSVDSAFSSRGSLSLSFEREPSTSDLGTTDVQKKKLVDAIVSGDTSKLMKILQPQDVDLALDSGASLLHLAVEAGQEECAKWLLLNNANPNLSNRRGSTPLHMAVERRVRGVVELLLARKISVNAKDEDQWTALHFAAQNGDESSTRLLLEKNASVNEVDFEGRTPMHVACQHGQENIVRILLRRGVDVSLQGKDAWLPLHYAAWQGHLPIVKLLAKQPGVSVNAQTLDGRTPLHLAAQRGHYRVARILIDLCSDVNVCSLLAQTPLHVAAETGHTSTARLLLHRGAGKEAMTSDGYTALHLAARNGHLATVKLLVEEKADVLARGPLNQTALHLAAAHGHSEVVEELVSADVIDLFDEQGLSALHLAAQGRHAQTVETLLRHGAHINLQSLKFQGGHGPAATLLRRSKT
Chain of UniProt P21127 (whole entry, looked up): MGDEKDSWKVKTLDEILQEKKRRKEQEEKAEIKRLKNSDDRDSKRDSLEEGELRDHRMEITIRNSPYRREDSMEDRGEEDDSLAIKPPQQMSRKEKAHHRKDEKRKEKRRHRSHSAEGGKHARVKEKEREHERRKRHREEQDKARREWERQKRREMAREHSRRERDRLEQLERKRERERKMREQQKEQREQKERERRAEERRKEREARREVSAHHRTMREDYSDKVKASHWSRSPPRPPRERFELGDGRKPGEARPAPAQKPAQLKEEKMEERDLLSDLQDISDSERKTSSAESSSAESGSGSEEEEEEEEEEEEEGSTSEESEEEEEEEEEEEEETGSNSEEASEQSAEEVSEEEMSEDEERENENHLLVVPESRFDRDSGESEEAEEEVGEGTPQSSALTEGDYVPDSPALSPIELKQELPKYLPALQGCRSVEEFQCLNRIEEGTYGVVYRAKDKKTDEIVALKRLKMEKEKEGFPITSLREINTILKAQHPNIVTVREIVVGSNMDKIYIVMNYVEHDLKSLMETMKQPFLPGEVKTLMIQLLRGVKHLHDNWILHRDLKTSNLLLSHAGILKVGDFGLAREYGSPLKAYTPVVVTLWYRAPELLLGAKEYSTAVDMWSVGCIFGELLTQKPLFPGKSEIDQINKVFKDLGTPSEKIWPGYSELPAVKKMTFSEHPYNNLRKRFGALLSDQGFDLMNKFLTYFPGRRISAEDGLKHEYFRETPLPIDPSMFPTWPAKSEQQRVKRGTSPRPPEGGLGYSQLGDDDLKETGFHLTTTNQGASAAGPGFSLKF
Chain of UniProt P27448 (whole entry, looked up): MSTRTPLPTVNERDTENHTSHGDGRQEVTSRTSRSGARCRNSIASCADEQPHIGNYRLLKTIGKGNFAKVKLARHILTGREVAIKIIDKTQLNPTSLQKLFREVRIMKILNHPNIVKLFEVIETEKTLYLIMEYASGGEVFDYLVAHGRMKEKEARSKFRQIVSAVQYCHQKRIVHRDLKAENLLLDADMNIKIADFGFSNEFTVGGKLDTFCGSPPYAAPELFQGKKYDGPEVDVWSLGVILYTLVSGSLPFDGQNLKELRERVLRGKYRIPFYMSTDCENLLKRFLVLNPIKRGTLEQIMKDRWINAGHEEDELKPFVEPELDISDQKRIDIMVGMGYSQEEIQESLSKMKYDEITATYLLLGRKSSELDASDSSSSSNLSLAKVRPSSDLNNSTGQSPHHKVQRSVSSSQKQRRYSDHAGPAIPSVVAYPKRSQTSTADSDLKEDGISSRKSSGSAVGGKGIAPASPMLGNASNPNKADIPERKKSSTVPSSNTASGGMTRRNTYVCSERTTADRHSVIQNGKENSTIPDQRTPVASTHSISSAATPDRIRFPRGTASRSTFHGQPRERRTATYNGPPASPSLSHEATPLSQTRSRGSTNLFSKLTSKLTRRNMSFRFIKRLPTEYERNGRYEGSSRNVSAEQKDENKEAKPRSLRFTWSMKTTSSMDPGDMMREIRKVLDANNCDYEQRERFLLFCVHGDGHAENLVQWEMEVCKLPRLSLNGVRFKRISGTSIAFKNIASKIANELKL
Chain of UniProt P27037 (whole entry, looked up): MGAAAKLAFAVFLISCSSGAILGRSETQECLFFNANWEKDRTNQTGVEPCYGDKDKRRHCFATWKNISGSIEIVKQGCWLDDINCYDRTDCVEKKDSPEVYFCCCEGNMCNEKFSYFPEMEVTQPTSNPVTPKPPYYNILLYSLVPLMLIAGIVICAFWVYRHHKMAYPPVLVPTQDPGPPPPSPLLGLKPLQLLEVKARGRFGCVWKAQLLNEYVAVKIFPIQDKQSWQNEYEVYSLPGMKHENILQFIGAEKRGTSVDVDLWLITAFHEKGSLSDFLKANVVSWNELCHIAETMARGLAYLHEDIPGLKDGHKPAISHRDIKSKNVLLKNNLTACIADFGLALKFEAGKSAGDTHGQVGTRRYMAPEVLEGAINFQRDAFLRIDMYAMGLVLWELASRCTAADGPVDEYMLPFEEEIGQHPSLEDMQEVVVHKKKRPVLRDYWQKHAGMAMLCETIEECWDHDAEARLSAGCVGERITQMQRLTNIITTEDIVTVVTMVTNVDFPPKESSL
Chain of UniProt Q86YV6 (whole entry, looked up): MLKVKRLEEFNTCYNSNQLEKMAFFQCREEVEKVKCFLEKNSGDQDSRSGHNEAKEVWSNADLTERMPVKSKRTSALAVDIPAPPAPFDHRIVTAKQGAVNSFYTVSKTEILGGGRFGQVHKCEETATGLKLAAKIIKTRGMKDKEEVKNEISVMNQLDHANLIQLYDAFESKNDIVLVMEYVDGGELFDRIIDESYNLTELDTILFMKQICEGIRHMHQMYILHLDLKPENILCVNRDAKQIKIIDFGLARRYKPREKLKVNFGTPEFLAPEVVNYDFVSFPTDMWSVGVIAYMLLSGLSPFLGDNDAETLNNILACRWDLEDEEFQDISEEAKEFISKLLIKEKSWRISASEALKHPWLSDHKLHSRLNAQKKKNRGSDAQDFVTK
Chain of UniProt P36897 (whole entry, looked up): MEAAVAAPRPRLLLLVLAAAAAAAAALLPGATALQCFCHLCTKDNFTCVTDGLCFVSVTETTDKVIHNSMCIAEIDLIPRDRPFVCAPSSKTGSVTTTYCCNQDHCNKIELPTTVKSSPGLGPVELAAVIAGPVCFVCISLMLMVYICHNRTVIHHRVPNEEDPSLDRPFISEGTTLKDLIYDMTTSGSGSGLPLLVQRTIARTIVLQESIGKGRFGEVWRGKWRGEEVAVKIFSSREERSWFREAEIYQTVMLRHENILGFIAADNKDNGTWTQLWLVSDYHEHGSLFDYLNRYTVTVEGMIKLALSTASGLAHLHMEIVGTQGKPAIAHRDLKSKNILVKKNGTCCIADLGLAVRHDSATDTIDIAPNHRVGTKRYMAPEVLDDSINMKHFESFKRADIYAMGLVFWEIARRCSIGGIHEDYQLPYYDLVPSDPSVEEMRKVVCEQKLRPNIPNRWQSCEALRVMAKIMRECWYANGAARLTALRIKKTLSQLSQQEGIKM
Chain of UniProt Q14680 (whole entry, looked up): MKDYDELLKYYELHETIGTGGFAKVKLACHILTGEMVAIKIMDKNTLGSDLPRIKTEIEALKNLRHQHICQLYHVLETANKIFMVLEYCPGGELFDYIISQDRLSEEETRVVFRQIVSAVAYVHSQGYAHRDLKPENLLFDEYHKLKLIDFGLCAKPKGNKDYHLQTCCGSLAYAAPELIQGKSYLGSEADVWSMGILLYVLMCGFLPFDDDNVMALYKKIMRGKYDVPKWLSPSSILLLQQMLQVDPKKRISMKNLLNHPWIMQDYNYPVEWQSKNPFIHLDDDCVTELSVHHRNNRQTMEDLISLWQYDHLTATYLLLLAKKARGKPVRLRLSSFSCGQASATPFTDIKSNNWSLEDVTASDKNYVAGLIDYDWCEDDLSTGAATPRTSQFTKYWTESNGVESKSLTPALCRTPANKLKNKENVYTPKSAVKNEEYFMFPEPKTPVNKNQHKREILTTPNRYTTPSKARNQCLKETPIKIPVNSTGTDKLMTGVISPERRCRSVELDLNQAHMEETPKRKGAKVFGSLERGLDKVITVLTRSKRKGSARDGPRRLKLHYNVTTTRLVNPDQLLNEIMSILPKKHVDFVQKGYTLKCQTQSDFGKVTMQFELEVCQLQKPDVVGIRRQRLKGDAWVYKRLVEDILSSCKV

Set 1 — effect on: cell-free assay; technique: competition with immobilised ligand; tested at: 0.1 µM; measurement: remaining binding
Compound: CS(=O)(=O)N1CCCC(NC(=O)[C@H](CCC2CCCCC2)NC(=O)c2ccc(CNC(=O)c3cnc4ccccn34)cc2)C1 (stereo partly shown)
Activin receptor type-2A (ACVR2A, Homo sapiens, UniProt P27037): 100%
Ribosomal protein S6 kinase alpha-4, N-terminal kinase domain (RPS6KA4, Homo sapiens, UniProt O75676): 97%
Dual specificity protein kinase CLK1 (CLK1, Homo sapiens, UniProt P49759): 86%
Cyclin-dependent kinase 13 (CDK13, Homo sapiens, UniProt Q14004): 61%
Misshapen-like kinase 1 (MINK1, Homo sapiens, UniProt Q8N4C8): 85%
TGF-beta receptor type-1 (TGFBR1, Homo sapiens, UniProt P36897): 84%
LIM domain kinase 2 (LIMK2, Homo sapiens, UniProt P53671): 92%
Wee1-like protein kinase 2 (WEE2, Homo sapiens, UniProt P0C1S8): 97%
Receptor-type tyrosine-protein kinase FLT3 (FLT3, Homo sapiens, UniProt P36888, D835H): 100%
Protein-tyrosine kinase 6 (PTK6, Homo sapiens, UniProt Q13882): 81%
Phosphatidylinositol 4,5-bisphosphate 3-kinase catalytic subunit alpha isoform (PIK3CA, Homo sapiens, UniProt P42336, E545A): 99%
Tyrosine-protein kinase Lck (LCK, Homo sapiens, UniProt P06239): 83%
Cyclin-dependent kinase 11B (CDK11B, Homo sapiens, UniProt P21127): 94%
TRAF2 and NCK-interacting protein kinase (TNIK, Homo sapiens, UniProt Q9UKE5): 100%
Ephrin type-A receptor 3 (EPHA3, Homo sapiens, UniProt P29320): 97%

Set 2 — effect on: enzyme activity; action: inhibitor; tested at: 0.5 µM; relative to: control; measurement: remaining activity
Target: Serine/threonine-protein kinase 3 (STK3, Homo sapiens, UniProt Q13188)
Target sequence (Q13188 1-491): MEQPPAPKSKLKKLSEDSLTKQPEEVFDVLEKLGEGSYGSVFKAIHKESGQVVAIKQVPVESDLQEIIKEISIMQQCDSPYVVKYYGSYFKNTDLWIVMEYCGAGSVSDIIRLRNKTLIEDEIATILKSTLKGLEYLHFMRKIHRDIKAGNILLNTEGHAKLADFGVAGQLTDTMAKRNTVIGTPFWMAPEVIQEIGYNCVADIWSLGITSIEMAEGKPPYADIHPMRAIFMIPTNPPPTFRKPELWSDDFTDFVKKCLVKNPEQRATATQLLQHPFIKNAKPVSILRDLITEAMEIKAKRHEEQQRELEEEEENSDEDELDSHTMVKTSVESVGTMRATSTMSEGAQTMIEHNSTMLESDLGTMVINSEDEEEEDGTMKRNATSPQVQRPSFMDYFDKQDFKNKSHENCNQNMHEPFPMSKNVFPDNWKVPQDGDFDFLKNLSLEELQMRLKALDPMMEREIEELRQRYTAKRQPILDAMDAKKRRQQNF
Oc1cccc(-c2nc(N3CCOCC3)c3oc4ncccc4c3n2)c1: 105%
O=C1NC(=O)c2c1c1c3ccccc3[nH]c1n1cncc21: 41%
c1ccc(-c2n[nH]c3c2oc2ccccc23)cc1: 49.6%
Cc1cc(Nc2cc(N3CCN(C)CC3)nc(Sc3ccc(NC(=O)C4CC4)cc3)n2)[nH]n1: 80.2%
Cc1ccc(S(=O)(=O)/C=C/C#N)cc1: 93.6%
CCCNC(=O)Nc1ccc(Oc2ncnc3cc(OC)c(OC)cc23)cc1Cl: 85%
N#Cc1cnc2cnc(NCc3cccnc3)cc2c1Nc1ccc(F)c(Cl)c1: 94.3%
O=C1NC(=O)c2c1c1c3ccccc3[nH]c1c1[nH]c3cc(Br)ccc3c21: 55.8%
COc1ccc2c(c1)c(C1=C(c3c[nH]c4ccccc34)C(=O)NC1=O)cn2CCCN(C)C: 72.2%

Set 3 — effect on: enzyme activity; tested at: 5 µM; measurement: remaining activity
SMILES: O=C(Nc1cnn(-c2csc(C(=O)NC3COC3)c2)c1)Nc1ccccc1Cl
STE20-like serine/threonine-protein kinase (SLK, Homo sapiens, UniProt Q9H2G2); relative to: untreated control: 87.9%
Maternal embryonic leucine zipper kinase (MELK, Homo sapiens, UniProt Q14680); relative to: untreated control: 48.2%
Ribosomal protein S6 kinase alpha-3 (RPS6KA3, Homo sapiens, UniProt P51812); relative to: untreated control: 95.1%
Serine/threonine-protein kinase Nek2 (NEK2, Homo sapiens, UniProt P51955); relative to: untreated control: 102%
Rhodopsin kinase GRK1 (GRK1, Homo sapiens, UniProt Q15835); relative to: untreated control: 91.8%
MAP/microtubule affinity-regulating kinase 3 (MARK3, Homo sapiens, UniProt P27448); relative to: untreated control: 97.7%
Dual serine/threonine and tyrosine protein kinase (DSTYK, Homo sapiens, UniProt Q6XUX3); relative to: untreated control: 101%
Myosin light chain kinase family member 4 (MYLK4, Homo sapiens, UniProt Q86YV6); relative to: untreated control: 83.4%
Receptor-interacting serine/threonine-protein kinase 4 (RIPK4, Homo sapiens, UniProt P57078); inhibitor: 89.2%

Set 4 — species: mouse; sample: microsomes or S9; tested at: 2 µM; time: 0.5 h; measurement: remaining compound
O=S1(=O)N=C(N2CCOCC2)c2ccccc21: 83.8%
CNC(=O)c1cc(S(=O)(=O)NC(C)C)cs1: 95%
Cc1cc(CN2CCN(Cc3cc(C)c(O)c(C)c3)CC2)cc(C)c1O: 71.3%
Cc1cc(-c2cnc(C)nc2-c2sccc2C)on1: > 100%
CCCn1cc(S(=O)(=O)N2CCC(c3nc4cnccn4c3NC(C)(C)C)CC2)c(C)n1: 5.45%
Cc1cc(C(=O)NC2CCCC2)ccc1NC(=O)N1CCn2ncnc2C1: 97.1%
Cn1cnnc1C1CCCN1c1ncnc2c1c(Br)nn2C (stereo not shown): > 100%
CC(C)c1nc(OCCCN(C)C)c(C#N)c2c1CCCC2: 2.46%
Fc1ccc(-c2cc3c(cn2)sc2ccccc23)cc1: 17.1%
COC(=O)c1ncn2c1C(=O)OC(COc1ccccc1)C2 (stereo not shown): 51.4%
O=c1c2c3c(nn2cnn1Cc1nc(-c2ccccc2F)no1)CCCC3: 7.86%
CC(NNC(=O)c1ccccc1Br)C(=O)Nc1sccc1C#N (stereo not shown): 8.92%
O=S(=O)(Cc1cc(Cl)cc(Cl)c1)N1CCN(c2nccs2)CC1: 4.45%

Excerpt of the above (set 1):
Cyclin-dependent kinase 13 (CDK13, Homo sapiens, UniProt Q14004): 61%
Misshapen-like kinase 1 (MINK1, Homo sapiens, UniProt Q8N4C8): 85%
TGF-beta receptor type-1 (TGFBR1, Homo sapiens, UniProt P36897): 84%
